# Experimental data pooled from the literature.
# Compare with care: the assays were run in different laboratories. ± gives the spread as reported.
SMILES,test,test system,conditions,tissue uptake
N#C[C@@H]1CC(F)(F)CN1C(=O)CNC(=O)c1ccnc2ccc(OCCCN3CCN(C(=O)CN4CCN(CC(N)=O)CCN(CC(N)=O)CCN(CC(N)=O)CC4)CC3)cc12 [lead-203 labelled],,"male NRG mice HEK293T-hFAP tumour, bladder","intravenous, 100 pmol, 1 h, unblocked",291 ± 114 %ID/g
CCCC[C@@H]1NC(=O)[C@@H](CC(C)C)NC(=O)[C@H](CCCCNC(=O)CN2CCN(CC(=O)O)CCN(CC(=O)O)CC2)NC(=O)NNC(=O)[C@H](Cc2c[nH]cn2)NC(=O)[C@@H](Cc2c[nH]c3ccccc23)NC1=O [copper-64 labelled],,"Balb/c mice, bone","intravenous, dose not given",0.12 ± 0.02 %ID/g
N#C[C@@H]1CC(F)(F)CN1C(=O)CNC(=O)c1ccnc2ccc(OCCCN3CCN(C(=S)Nc4ccc(C[C@H]5CN(CC(N)=O)CCN(CC(N)=O)CCN(CC(N)=O)CCN5CC(N)=O)cc4)CC3)cc12 [lead-203 labelled],,"male NRG mice HEK293T-hFAP tumour, kidneys","intravenous, 100 pmol, 1 h, unblocked",3.79 ± 0.85 %ID/g
CC(C)C[C@H](NC(=O)[C@@H](CCCCNC(=O)[C@@H](Cc1ccccc1)NC(=O)CCCCCNC(=O)CN1CCN(CC(=O)O)CCN(CC(=O)O)CCN(CC(=O)O)CC1)NC(=O)[C@H](Cc1ccc(O)cc1)NC(=O)[C@H](CO)NC(=O)[C@H](Cc1c[nH]c2ccccc12)NC(=O)[C@H](Cc1c[nH]cn1)NC(=O)[C@@H]1CCC(=O)N1)C(=O)N[C@@H](CCCNC(=N)N)C(=O)N1CCC[C@H]1C(=O)NCC(N)=O [indium-111 labelled],,"female athymic nude mice, lung","intravenous, 0.037 MBq, 2 h",0.21 ± 0.05 %ID/g
CCCC[C@@H]1NC(=O)[C@@H](CC(C)C)NC(=O)[C@H](CCCCNC(=O)CN2CCN(CC(=O)O)CCN(CC(=O)O)CC2)NC(=O)[C@@H](CO)NC(=O)[C@H](Cc2c[nH]cn2)NC(=O)[C@@H](Cc2c[nH]c3ccccc23)NC1=O [copper-64 labelled],,"Balb/c mice, spleen","intravenous, dose not given",10.3 ± 0.81 %ID/g
CC(C)C[C@@H](NC(=O)[C@@H](CC(C)C)NC(=O)[C@@H](CC(=O)O)NC(=O)[C@@H](CC(C)C)NC(=O)[C@@H](CC(C)C)NC(=O)[C@@H](CC(C)C)NC(=O)[C@H](NC(=O)[C@@H](CC(=O)O)NC(=O)[C@H](NC(=O)[C@H]1CCCN1C(=O)[C@@H](Cc1ccccc1)NC(=O)[C@@H](CC(C)C)NC(=O)[C@@H](CC(C)C)NC(=O)[C@@H](CC(=O)O)NC(=O)[C@@H](CC(C)C)NC(=O)[C@@H](Cc1ccc(O)cc1)NC(=O)[C@@H](C)NC(=O)[C@@H](CCCNC(=N)N)NC(=O)[C@@H](Cc1c[nH]c2ccccc12)NC(=O)[C@H]1CCCN1C(=O)[C@@H](CC(N)=O)NC(=O)[C@@H](CCC(N)=O)NC(=O)[C@@H](CC(=O)O)NC(=O)[C@@H](CC(=O)O)NC(=O)[C@@H](CSC1CC(=O)N(CCNC(=O)CN2CCN(CC(=O)O)CCN(CC(=O)O)CC2)C1=O)NC(=O)[C@@H](C)N)[C@H](C)O)[C@H](C)O)C(=O)N[C@H](Cc1c[nH]c2ccccc12)C(=O)O (stereo partly shown) [copper-64 labelled],,"C57BL/6 mice, female, B16-F10 melanoma, tumor","intravenous, 1 h",5.42 %ID/g
C[C@@H](O)[C@@H]1NC(=O)[C@H](CCCCN)NC(=O)[C@@H](Cc2c[nH]c3ccccc23)NC(=O)[C@H](Cc2ccc(O)cc2)NC(=O)[C@@H](NC(=O)[C@@H](Cc2ccccc2)NC(=O)CN2CCN(CC(=O)O)CCN(CC(=O)O)CCN(CC(=O)O)CC2)CSSC[C@@H](C(=O)N[C@H](CO)[C@@H](C)O)NC1=O [gallium-67 labelled],gamma counting,"ICR mice, male, pancreas","iv, 11 kBq/mouse, 3 h",5.8 ± 0.84 %ID/g
Cc1cc(-c2ccc(NC(=O)CC[C@H](NC(=O)CN3CCN(CC(=O)O)CCN(CC(=O)O)CCN(CC(=O)O)CC3)C(=O)NCC(=O)N[C@@H](CC(N)=O)C(=O)N[C@H](C(=O)N[C@H](C(=O)N[C@@H](CCCNC(=N)N)C(=O)N[C@@H](CCC(N)=O)C(=O)O)C(C)C)C(C)C)c(C)c2)ccc1/N=N/c1ccc2c(S(=O)(=O)O)cc(S(=O)(=O)O)c(N)c2c1O [copper-64 labelled],,"nude mice, heart","intravenous, 2 h",16.6 ± 2.4 %ID/g
N#C[C@@H]1CC(F)(F)CN1C(=O)CNC(=O)c1ccnc2ccc(OCCCN3CCN(C(=S)Nc4ccc(C[C@H]5CN(Cc6ccccn6)CCN(Cc6ccccn6)CCN(Cc6ccccn6)CCN5Cc5ccccn5)cc4)CC3)cc12 [lead-203 labelled],,"male NRG mice HEK293T-hFAP tumour, liver","intravenous, 100 pmol, 1 h, unblocked",31.4 ± 1.02 %ID/g
CC(C)C[C@@H]1NC(=O)[C@H](CC(=O)O)NC(=O)CNC(=O)[C@H](CCCNC(=N)N)NC(=O)[C@H](Cc2ccc(O)cc2)NC(=O)[C@H](CCCCNC(=O)CCc2cn(CCCNC(=O)CCP(=O)(O)CN3CCN(CP(=O)(O)CCC(=O)NCCCn4cc(CCC(=O)NCCCC[C@H]5C(=O)N[C@@H](Cc6ccc(O)cc6)C(=O)N[C@@H](CCCNC(=N)N)C(=O)NCC(=O)N[C@@H](CC(=O)O)C(=O)N[C@@H](CC(C)C)C(=O)N[C@@H](C)C(=O)N[C@@H](Cc6ccc(O)cc6)C(=O)N6CCC[C@@H]6C(=O)N5C)nn4)CCN(CP(=O)(O)CCC(=O)NCCCn4cc(CCC(=O)NCCCC[C@H]5C(=O)N[C@@H](Cc6ccc(O)cc6)C(=O)N[C@@H](CCCNC(=N)N)C(=O)NCC(=O)N[C@@H](CC(=O)O)C(=O)N[C@@H](CC(C)C)C(=O)N[C@@H](C)C(=O)N[C@@H](Cc6ccc(O)cc6)C(=O)N6CCC[C@@H]6C(=O)N5C)nn4)CC3)nn2)N(C)C(=O)[C@H]2CCCN2C(=O)[C@H](Cc2ccc(O)cc2)NC(=O)[C@H](C)NC1=O [gallium-68 labelled],PET imaging,"SCID mice with H2009 tumour, left kidney",75 min,27.9 %ID/g

# Some of these lines once more:
SMILES,test,test system,conditions,tissue uptake
N#C[C@@H]1CC(F)(F)CN1C(=O)CNC(=O)c1ccnc2ccc(OCCCN3CCN(C(=S)Nc4ccc(C[C@H]5CN(Cc6ccccn6)CCN(Cc6ccccn6)CCN(Cc6ccccn6)CCN5Cc5ccccn5)cc4)CC3)cc12 [lead-203 labelled],,"male NRG mice HEK293T-hFAP tumour, liver","intravenous, 100 pmol, 1 h, unblocked",31.4 ± 1.02 %ID/g
